Results of several laboratories.
Lines come from different studies, so protocols differ. ± marks the error that the study gave.

CC(C)C[C@H]1NC(=O)[C@H](CC(=O)O)NC(=O)CNC(=O)[C@H](CCCNC(=N)N)NC(=O)[C@H](C)NC1=O  IC50 (WM-115; WM-115 cell adhesion, inhibitor; 1 h, together with: immobilized CagL^F86A): 2.39 µM
CCCCNc1ccc(C(=O)O)c(OC)c1  IC50 (ventricular myocytes R176Q mouse; Ca2+ spark frequency; 2 h, together with: isoproterenol 100 nM): 0.2 µM
CC[C@H](C)n1cc(C)c2c(C(=O)NCc3c(C)cc(C)[nH]c3=O)cc(-c3ccc(N4CCNCC4)nc3)cc21  IC50 (SU-DHL10; cell growth or viability): 0.7 µM
Ic1cccc2cnccc12  IC50 (axotomized mouse DRG neurons; NfL release, ELISA, measured: neurofilament light chain; culture supernatant): 1.9 µM
O=c1cc(-c2ccccc2)oc2cc(O)cc(O)c12  IC50 (U-937; cell growth or viability, ATP luminescence; 24 h): 217 µM
NS(=O)(=O)c1ccc(NC(=O)CSc2nnc(-c3n[nH]c(=O)c4ccccc34)o2)cc1  IC50 (WI-38; cell growth or viability, MTT; 48 h): 32.9 µM
Nc1nc2[nH]c(CCCCc3ccc(C(=O)N[C@@H](CCC(=O)O)C(=O)O)nc3)cc2c(=O)[nH]1  IC50 (IGROV1; cell growth; without folic acid): < 0.001 µM
O=c1c(/C=C/c2ccccc2Cl)nc2ccccc2n1Cc1ccccc1  IC50 (HeLa 229; cell growth or viability, MTT; 72 h): > 50 µM
Nn1c(SCC(=O)Nc2cccc(Br)c2)nnc1-c1ccc(NC(=O)c2cccnc2)cc1  IC50 (RAW264.7; reactive oxygen species, inhibitor, fluorescence; LPS-stimulated): 9.77 µM
COc1ccc2c(c1)c(CC(=O)OC[C@@H](O)COP(=O)([O-])OCC[N+](C)(C)C)c(C)n2C(=O)c1ccc(Cl)cc1  IC50 (MCF-10A; cell growth or viability, SRB; 72 h): 6.9 µM
CC(C)N(C(=S)[S][Sn]([c]1ccccc1)([c]1ccccc1)[c]1ccccc1)C(C)C  IC50 (WIL2-NS; cell growth or viability, MTT): 0.55 µM
CCOc1ccc(N(C)c2nc(N)nc3[nH]c4ccccc4c23)cc1  IC50 (HeLa transfected with βIII-tubulin; cell growth, SRB): 0.0188 ± 0.0005 µM
O=C(NCCCl)Nc1ccc(S(=O)(=O)Oc2cccnc2Br)cc1  IC50 (MOLM-13; cell growth or viability, MTT; 48 h): 2.6 µM
Nn1c(SCC(=O)Nc2ccccc2Cl)nnc1-c1ccc(NC(=O)c2cccnc2)cc1  IC50 (RAW264.7; reactive oxygen species, inhibitor, fluorescence; LPS-stimulated): 0.07 µM
CC1(C)c2ccccc2N(Cc2ccc(C(=O)NO)cc2)C1c1ccncc1 (racemic)  IC50 (IPF patient basal cells; bronchosphere formation, 3D organoid and MTT; 14 days): 0.00461 µM
O=C(CSc1nnc(-c2n[nH]c(=O)c3ccccc23)o1)c1ccccc1  IC50 (WI-38; cell growth or viability, MTT; 48 h): 23.5 µM
C=CCc1ccc(OCc2nn(CN3CCCC3)c(=S)o2)c(OC)c1  IC50 (MCF7, SK-OV-3, PC-3; cell growth, MTT): ≤ 10 µM
CC(C)Oc1ccc(C(=O)Cn2ccnc2)cc1-n1c(CN2CCN(C(=O)COc3ccc(Cl)cc3)CC2)nc2ccccc2c1=O  IC50 (SU-DHL10; cell viability, CellTiter-Glo; 24 h): < 0.1 µM
O=c1c(O)c(-c2ccc(O)c(O)c2)oc2cc(O)cc(O)c12  IC50 (U-937; cell growth or viability, ATP luminescence; 24 h): 8 µM
COc1cccc(CCc2ccc(O)cc2)c1  IC50 (HL-60; reactive oxygen species, inhibitor, fluorescence): 0.027 µg/mL
Cc1cc(C(=O)/C(=C/c2cc(Br)cs2)c2cc(Br)cs2)c(C(=O)N2CCCCC2)c(=O)[nH]1  IC50 (A-375; cell growth or viability, MTT; 72 h): > 10 µM
CC(=O)c1ccc(NC(=O)CSc2nnc(-c3ccc(NC(=O)c4cccnc4)cc3)n2N)cc1  IC50 (RAW264.7; TNF-α release, inhibitor, ELISA; LPS-stimulated): 19.7 µM
O=C1Nc2ccc(Cl)cc2C1n1nc(-c2c(O)c3ccccc3oc2=O)cc1-c1ccc(Br)cc1 (stereo not shown)  IC50 (A-375; cell growth or viability, SRB; 72 h): 6.25 µM
Cc1ccc(C)c(NC(=O)CSc2nnc(-c3ccc(NC(=O)c4cccnc4)cc3)o2)c1  IC50 (RAW264.7; TNF-α release, inhibitor, ELISA; LPS-stimulated): 1.87 µM
O=c1c2ccccc2c(-c2nnc(SCNc3ccccc3Cl)o2)nn1CNc1ccccc1Cl  IC50 (WI-38; MTT; 48 h): ~23 µM
Cc1ccc(NC(=O)CSc2nnc(-c3ccc(NC(=O)c4cccnc4)cc3)o2)cc1  IC50 (RAW264.7; TNF-α release, inhibitor, ELISA; LPS-stimulated): 3.51 µM
CCN1C(=O)C(n2nc(-c3c(O)c4ccccc4oc3=O)cc2-c2ccc(F)cc2)c2cc(Br)ccc21 (stereo not shown)  IC50 (A-375; cell growth or viability, SRB; 72 h): 38.6 µM
COc1cc(/C=C/c2ccc(O)cc2)cc(OC)c1  IC50 (HL-60; reactive oxygen species, inhibitor, fluorescence): 0.3 µg/mL
COc1cc(OC)c2cc(C(=O)NCCCN3CCOCC3)cc(O)c2c1  IC50 (C26, HepG2, MCF7; cytotoxicity, MTT; range over three cell lines): 14.5 to 25.1 µM
curcumin  IC50 (HCT-116 (KRAS wild type, TP53 wild type); cell viability, MTS; 72 h): 19.6 µM
O=c1[nH]c2ccccc2nc1/C=C/c1ccccc1  IC50 (HeLa 229; cell growth or viability, MTT; 72 h): > 50 µM
C[C@]12CC[C@@H]3c4ccc(O)cc4C[C@@H](CCCCCCCCC[S+]([O-])CCCC(F)(F)C(F)(F)F)[C@H]3[C@@H]1CC[C@@H]2O (stereo partly shown)  IC50 (CAMA-1; cell growth or viability; 7 days): 0.0126 µM
O=c1[nH]nc(-c2nnc(SCc3ccccc3)o2)c2ccccc12  IC50 (WI-38; cell growth or viability, MTT; 48 h): 42.2 µM
O=C1C(=Cc2ccccc2)CN(C(=O)c2cccc(C(=O)N3CC(=Cc4ccccc4)C(=O)C(=Cc4ccccc4)C3)c2)CC1=Cc1ccccc1  IC50 (Molt4/C8; cell growth or viability): 12.5 µM
O=C1Nc2ccccc2C1n1nc(-c2c(O)c3ccccc3oc2=O)cc1-c1ccc(Br)cc1 (stereo not shown)  IC50 (A-375; cell growth or viability, SRB; 72 h): 8.45 µM
CC[C@H](CC[C@@H](C)[C@H]1CC[C@H]2[C@@H]3CC=C4C[C@@H](O)CC[C@]4(C)[C@H]3CC[C@]12C)C(C)C  IC50 (MCF-10A; cell growth or viability, resazurin; 24 h): 233 µg/mL
CCNC(=O)Nc1ccc(S(=O)(=O)Oc2cccnc2C(C)C)cc1  IC50 (MOLM-13; cell growth or viability, MTT; 48 h): 0.9 µM
CC(C)/C=C/c1c(O)cc(/C=C/c2ccc(O)c(O)c2)cc1O  IC50 (HL-60; reactive oxygen species, inhibitor, fluorescence): 0.45 µg/mL
O=c1[nH]c2ccccc2nc1/C=C/c1ccco1  IC50 (HeLa 229; cell growth or viability, MTT; 72 h): > 50 µM
Nc1nc2sc(CCCCCc3ccc(C(=O)N[C@@H](CCC(=O)O)C(=O)O)cc3)cc2c(=O)[nH]1  IC50 (KB and IGROV-1; cell growth): 0.0047 to 0.334 µM
CC1(C)C=Cc2c(O)cc(/C=C/c3ccc(O)cc3)cc2O1  IC50 (HL-60; reactive oxygen species, inhibitor, fluorescence): 1.3 µg/mL
COc1cc2ncnc(Nc3ccc(Cl)cc3F)c2cc1OC  IC50 (H2030 (EGFR wild type); cell viability, Alamar Blue; 120 h): > 10 µM
Cc1cc(C)n(C(N)=S)n1.Cc1ccc(C(C)C)cc1.[Cl][Ru][Cl]  IC50 (WM-115; cell growth or viability, MTT; 48 h): 60.2 µM
CCNC(=O)Nc1ccc(S(=O)(=O)Oc2cnccc2Br)cc1  IC50 (MOLM-13; cell growth or viability, MTT; 48 h): 2.5 µM
O=C1Nc2ccc(OC(F)(F)F)cc2C1n1nc(-c2c(O)c3ccccc3oc2=O)cc1-c1ccc(Cl)cc1 (stereo not shown)  IC50 (A-375; cell growth or viability, SRB; 72 h): 4.17 µM
COc1ccc(Nc2ncnc(-c3cccnc3Nc3cc(NC(=O)c4ccc(CN5CCN(C)CC5)cc4)ccc3C)n2)cc1  IC50 (Ba/F3 expressing BCR-ABL E255K; cell proliferation, inhibitor, trypan blue exclusion; 48 h, without IL-3): < 0.5 µM
O=c1[nH]c2ccccc2nc1/C=C/c1ccccc1[N+](=O)[O-]  IC50 (HeLa 229; cell growth or viability, MTT; 72 h): > 50 µM
O=C(Nc1ccc(-c2n[nH]c(=S)n2N=Cc2c[nH]c3ccccc23)cc1)c1cccnc1  IC50 (RAW264.7; IL-6 release, inhibitor, ELISA; LPS-stimulated): 49.7 µM
CC(=O)OC[C@H]1O[C@@H]([S-])[C@H](OC(C)=O)[C@@H](OC(C)=O)[C@@H]1OC(C)=O.CCP(CC)CC.[Au+]  IC50 (GIST882; cell growth or viability; 72 h): 0.64 µM
Cc1ccc(C)c(NC(=O)CSc2nnc(-c3ccc(NC(=O)c4cccnc4)cc3)n2N)c1  IC50 (RAW264.7; NO release, inhibitor, Griess; LPS-stimulated): 9.58 µM
C=CC(=O)NCc1ccc(C(=O)Nc2ccccc2Oc2ccc(OCC)cc2)cc1  IC50 (HEK293T; MYC transcriptional activity, inhibitor, luciferase reporter; 24 h): 2.8 µM
CC(=O)[O][Pt]([NH2])([Cl])([Cl])([NH]C1CCCCC1)[O]C(C)=O  IC50 (SW480; cell viability, MTT; 96 h): 1.5 ± 0.1 µM
O=C(CSc1nnc(-c2ccc(NC(=O)c3cccnc3)cc2)o1)Nc1ccc(F)cc1  IC50 (RAW264.7; IL-6 release, inhibitor, ELISA; LPS-stimulated): 1.95 µM
Cn1c(=O)c(/C=C/c2ccccn2)nc2ccccc21  IC50 (HeLa 229; cell growth or viability, MTT; 72 h): 14.6 µM
CNC(=O)c1cc(Oc2ccc(NC(=O)Nc3ccc(Cl)c(C(F)(F)F)c3)cc2)ccn1  IC50 (MHCC97H with NICD overexpression; cell viability, MTT): 4.88 µM
O=C1C(n2nc(-c3c(O)c4ccccc4oc3=O)cc2-c2ccc(Cl)cc2)c2cc(Cl)ccc2N1Cc1ccccc1 (stereo not shown)  IC50 (A-375; cell growth or viability, SRB; 72 h): 1.09 µM
CCCNC(=O)Nc1ccc(S(=O)(=O)Oc2cccnc2I)cc1  IC50 (MOLM-13; cell growth or viability, MTT; 48 h): 3.7 µM
CC(C)NC[C@@H](C(=O)N1CCN(c2ncnc3c2[C@H](C)C[C@H]3O)CC1)c1ccc(Cl)cc1  IC50 (cancer cell lines without alterations; cell viability, CellTiter-Glo; 4 days): 8.4 ± 0.48 µM

Some of these lines once more:
O=c1[nH]c2ccccc2nc1/C=C/c1ccccc1[N+](=O)[O-]  IC50 (HeLa 229; cell growth or viability, MTT; 72 h): > 50 µM
O=C(Nc1ccc(-c2n[nH]c(=S)n2N=Cc2c[nH]c3ccccc23)cc1)c1cccnc1  IC50 (RAW264.7; IL-6 release, inhibitor, ELISA; LPS-stimulated): 49.7 µM
CC(=O)OC[C@H]1O[C@@H]([S-])[C@H](OC(C)=O)[C@@H](OC(C)=O)[C@@H]1OC(C)=O.CCP(CC)CC.[Au+]  IC50 (GIST882; cell growth or viability; 72 h): 0.64 µM
